{"data": "Assay results of several laboratories", "note": "Protocols differ between the studies behind these lines.", "sequence of UniProt P05182 (whole entry, looked up)": "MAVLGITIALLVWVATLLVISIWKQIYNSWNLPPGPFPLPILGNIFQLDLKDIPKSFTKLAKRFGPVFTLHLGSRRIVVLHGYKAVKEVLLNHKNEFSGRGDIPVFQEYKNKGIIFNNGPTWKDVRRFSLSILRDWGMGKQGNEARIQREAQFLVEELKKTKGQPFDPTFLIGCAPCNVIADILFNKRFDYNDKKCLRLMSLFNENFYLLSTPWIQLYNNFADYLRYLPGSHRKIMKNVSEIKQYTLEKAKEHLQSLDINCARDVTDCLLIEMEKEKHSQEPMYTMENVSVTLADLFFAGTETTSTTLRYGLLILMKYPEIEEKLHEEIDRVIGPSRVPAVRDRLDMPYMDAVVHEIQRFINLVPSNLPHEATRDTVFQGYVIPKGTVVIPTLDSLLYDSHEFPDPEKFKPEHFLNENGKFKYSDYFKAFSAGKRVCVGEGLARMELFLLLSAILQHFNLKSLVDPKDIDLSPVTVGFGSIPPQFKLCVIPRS", "sequence of UniProt Q16659 (whole entry, looked up)": "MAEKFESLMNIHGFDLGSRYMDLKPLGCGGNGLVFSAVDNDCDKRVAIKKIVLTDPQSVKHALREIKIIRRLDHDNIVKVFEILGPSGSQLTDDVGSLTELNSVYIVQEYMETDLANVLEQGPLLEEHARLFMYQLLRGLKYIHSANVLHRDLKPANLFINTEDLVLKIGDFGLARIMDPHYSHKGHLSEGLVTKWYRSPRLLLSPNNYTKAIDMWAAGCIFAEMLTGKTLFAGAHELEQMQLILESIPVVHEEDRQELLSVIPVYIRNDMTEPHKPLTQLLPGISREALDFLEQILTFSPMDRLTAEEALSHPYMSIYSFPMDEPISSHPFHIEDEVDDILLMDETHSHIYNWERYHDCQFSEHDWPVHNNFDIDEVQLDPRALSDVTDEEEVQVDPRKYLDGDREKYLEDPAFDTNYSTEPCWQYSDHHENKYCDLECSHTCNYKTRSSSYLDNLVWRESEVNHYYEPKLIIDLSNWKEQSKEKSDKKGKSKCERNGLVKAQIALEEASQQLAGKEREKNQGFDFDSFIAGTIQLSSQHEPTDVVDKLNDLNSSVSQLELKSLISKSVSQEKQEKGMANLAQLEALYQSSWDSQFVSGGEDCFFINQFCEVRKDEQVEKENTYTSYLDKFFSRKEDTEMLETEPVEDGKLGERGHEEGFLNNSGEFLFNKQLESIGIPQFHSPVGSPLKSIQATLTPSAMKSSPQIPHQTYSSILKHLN", "sequence of UniProt Q86Y07 (whole entry, looked up)": "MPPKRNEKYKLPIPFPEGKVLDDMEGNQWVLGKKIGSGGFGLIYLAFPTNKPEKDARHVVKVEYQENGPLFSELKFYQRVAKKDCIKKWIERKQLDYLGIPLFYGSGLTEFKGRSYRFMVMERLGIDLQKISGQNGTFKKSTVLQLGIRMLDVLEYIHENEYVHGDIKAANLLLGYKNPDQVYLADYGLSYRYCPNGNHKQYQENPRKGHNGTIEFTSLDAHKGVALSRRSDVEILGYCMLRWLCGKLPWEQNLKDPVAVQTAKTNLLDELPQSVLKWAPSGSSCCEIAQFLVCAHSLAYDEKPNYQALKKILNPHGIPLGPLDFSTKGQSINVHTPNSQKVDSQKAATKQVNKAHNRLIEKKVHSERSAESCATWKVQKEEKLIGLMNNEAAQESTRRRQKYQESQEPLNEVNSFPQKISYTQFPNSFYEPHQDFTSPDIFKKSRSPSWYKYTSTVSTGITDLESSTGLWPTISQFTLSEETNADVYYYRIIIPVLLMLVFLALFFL", "sequence of UniProt Q9BXA7 (whole entry, looked up)": "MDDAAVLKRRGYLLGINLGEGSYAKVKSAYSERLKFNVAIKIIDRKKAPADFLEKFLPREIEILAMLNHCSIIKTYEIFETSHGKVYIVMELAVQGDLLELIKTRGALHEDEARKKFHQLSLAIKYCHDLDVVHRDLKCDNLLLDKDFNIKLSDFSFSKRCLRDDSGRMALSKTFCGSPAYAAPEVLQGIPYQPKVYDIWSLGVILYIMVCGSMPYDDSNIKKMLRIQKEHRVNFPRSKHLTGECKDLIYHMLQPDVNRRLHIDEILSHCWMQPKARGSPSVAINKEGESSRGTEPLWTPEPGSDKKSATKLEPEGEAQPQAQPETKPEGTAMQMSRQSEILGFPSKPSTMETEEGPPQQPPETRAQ", "sequence of UniProt P42336 (whole entry, unmodified, looked up)": "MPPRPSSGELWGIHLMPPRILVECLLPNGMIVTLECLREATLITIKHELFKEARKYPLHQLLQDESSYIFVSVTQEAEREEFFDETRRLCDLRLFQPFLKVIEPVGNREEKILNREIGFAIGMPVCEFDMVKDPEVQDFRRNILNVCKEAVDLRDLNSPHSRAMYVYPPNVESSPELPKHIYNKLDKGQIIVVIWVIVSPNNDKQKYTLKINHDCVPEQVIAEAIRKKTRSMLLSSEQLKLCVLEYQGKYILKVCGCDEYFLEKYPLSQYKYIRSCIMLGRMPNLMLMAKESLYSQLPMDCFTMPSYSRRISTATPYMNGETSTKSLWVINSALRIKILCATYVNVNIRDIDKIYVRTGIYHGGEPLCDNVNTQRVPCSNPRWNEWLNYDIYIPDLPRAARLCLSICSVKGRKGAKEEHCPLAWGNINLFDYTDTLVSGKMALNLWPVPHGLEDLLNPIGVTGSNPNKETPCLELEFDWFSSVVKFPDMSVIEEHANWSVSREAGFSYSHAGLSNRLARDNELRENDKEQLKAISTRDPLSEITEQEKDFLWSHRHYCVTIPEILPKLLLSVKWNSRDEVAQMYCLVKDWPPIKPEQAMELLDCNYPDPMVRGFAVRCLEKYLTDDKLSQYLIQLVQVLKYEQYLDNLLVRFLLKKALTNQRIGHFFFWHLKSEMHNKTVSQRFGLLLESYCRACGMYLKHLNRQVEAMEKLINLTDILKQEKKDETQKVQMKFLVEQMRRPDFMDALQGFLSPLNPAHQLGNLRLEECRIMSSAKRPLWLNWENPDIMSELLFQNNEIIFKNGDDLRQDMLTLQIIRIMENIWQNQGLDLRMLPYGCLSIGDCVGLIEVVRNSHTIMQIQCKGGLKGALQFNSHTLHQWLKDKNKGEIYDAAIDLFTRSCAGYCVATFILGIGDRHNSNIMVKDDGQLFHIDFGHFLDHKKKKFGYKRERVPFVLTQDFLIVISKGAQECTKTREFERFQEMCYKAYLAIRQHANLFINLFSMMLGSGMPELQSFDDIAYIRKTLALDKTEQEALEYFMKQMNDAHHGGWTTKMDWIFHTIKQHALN", "sequence of UniProt Q9NYB5 (whole entry, looked up)": "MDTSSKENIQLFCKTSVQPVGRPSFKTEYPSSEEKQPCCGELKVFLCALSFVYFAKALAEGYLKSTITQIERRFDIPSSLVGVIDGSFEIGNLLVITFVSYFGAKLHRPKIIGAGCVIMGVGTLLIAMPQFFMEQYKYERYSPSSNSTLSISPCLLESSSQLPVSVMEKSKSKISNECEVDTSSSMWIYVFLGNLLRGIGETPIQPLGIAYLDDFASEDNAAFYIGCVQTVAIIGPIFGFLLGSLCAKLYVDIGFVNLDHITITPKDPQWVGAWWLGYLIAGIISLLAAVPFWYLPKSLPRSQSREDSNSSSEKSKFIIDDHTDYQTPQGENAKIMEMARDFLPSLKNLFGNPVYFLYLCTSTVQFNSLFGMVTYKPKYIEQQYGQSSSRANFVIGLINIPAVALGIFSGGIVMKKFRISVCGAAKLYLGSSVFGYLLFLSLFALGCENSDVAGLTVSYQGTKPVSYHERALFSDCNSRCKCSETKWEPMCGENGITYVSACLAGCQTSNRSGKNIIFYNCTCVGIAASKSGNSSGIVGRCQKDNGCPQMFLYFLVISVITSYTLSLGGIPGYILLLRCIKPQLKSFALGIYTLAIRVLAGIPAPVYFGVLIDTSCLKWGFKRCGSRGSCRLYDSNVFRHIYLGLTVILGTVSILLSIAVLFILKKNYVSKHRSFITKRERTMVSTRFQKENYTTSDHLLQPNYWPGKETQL"}
{"SMILES": "Nc1ncc(-c2nc(N3CCOCC3)nc(N3CCOCC3)n2)c(C(F)F)n1", "tested on": "Serine/threonine-protein kinase VRK2 (VRK2, Homo sapiens, UniProt Q86Y07)", "assay": "binding, competition with immobilised ligand", "setting": "10 µM", "measurement": "remaining binding", "value": "64%"}
{"SMILES": "C=CC(O)CO (stereo not drawn)", "tested on": "Cytochrome P450 2E1 (Cyp2e1, Rattus norvegicus, UniProt P05182)", "assay": "enzyme activity, inhibitor", "test system": "Fischer 344 rat, liver microsomes", "setting": "25 mM, 30 min", "measurement": "activity vs control", "value": "18%"}
{"SMILES": "CC(C)C[C@H](NC(=O)[C@@H](NC(=O)/C=C/c1ccccc1)C(C)C)C(=O)N[C@H](C=O)C[C@@H]1CCCNC1=O", "tested on": "A549", "assay": "cell growth or viability, MTT", "setting": "24 h", "measurement": "CC50", "value": "> 100 µM"}
{"SMILES": "CC(C)C[C@@H]1C(=O)N[C@@H](Cc2ccccc2)C(=O)N2CCC[C@H]2C(=O)N[C@@H]([C@@H](C)O)C(=O)N[C@@H](C(C)C)C(=O)N[C@H]([C@H](C)O)C(=O)N[C@@H](Cc2ccccc2)C(=O)N[C@@H](CCC(N)=O)C(=O)N[C@H](C(=O)O)CSSC[C@H](N)C(=O)N1C", "test system": "aqueous buffer", "setting": "18 h, pH 7.4", "measurement": "thermodynamic solubility", "value": "457 µM"}
{"SMILES": "Cc1ncc2n1-c1ccc(Cl)cc1C(c1ccccc1F)=NC2", "assay": "metabolic stability", "test system": "minipig, hepatocytes", "setting": "1 µM, 4 h", "measurement": "compound remaining", "value": "42%"}
{"SMILES": "CCOC(=O)C1=C(CN2CCC[C@@H]2C(=O)Nc2ccc(B(O)O)cc2)NC(c2nccs2)=N[C@@H]1c1ccc(F)cc1Br", "tested on": "HepDES19", "assay": "cell growth or viability, MTS", "setting": "72 h", "measurement": "CC50", "value": "42 µM"}
{"SMILES": "COCC1=N[C@@]2(O)[C@H](C(=O)N(C)OC)[C@@H](c3ccccc3)[C@]3(c4ccc(OC)cc4)Oc4cc(OC)cc(OC)c4[C@]23N1", "test system": "aqueous buffer", "setting": "6 h, pH 7.4", "measurement": "kinetic solubility", "value": "> 87 µg/mL"}
{"SMILES": "N.N.[Cl][Pt][Cl]", "tested on": "L-82", "assay": "cell growth or viability, ATP luminescence", "setting": "72 h", "measurement": "IC50", "value": "0.94 µM"}
{"SMILES": "CONC(=O)[C@H]1[C@@H](O)[C@@]2(O)c3c(OC)cc(OC)cc3O[C@@]2(c2ccc(OC)cc2)[C@@H]1c1ccccc1", "test system": "aqueous buffer", "setting": "pH 7.4", "measurement": "kinetic solubility", "value": "42 µg/mL"}
{"SMILES": "CC[C@H](C)[C@H]1C(=O)N[C@@H]([C@@H](C)O)C(=O)N[C@@H](C)C(=O)N[C@@H](Cc2ccccc2)C(=O)N[C@@H](CC(C)C)C(=O)NCC(=O)N[C@@H](CC(C)C)C(=O)N2CCC[C@@H]2C(=O)N[C@H](Cc2ccc(O)cc2)C(=O)N2CCC[C@H]2C(=O)NCC(=O)N[C@@H](CCCNC(=N)N)C(=O)N1C", "test system": "aqueous buffer", "setting": "18 h, pH 7.4", "measurement": "solubility", "value": "776 µM"}
{"SMILES": "Cc1nn(C)cc1-c1nc2c(N3CCN(Cc4ccc(Cl)cc4)CC3)c(Cl)cnc2[nH]1", "tested on": "Phosphatidylinositol 4,5-bisphosphate 3-kinase catalytic subunit alpha isoform (PIK3CA, Homo sapiens, UniProt P42336, Q546K)", "assay": "binding, competition with immobilised ligand", "setting": "1 µM", "measurement": "remaining binding", "value": "76%"}
{"SMILES": "CC(C)C[C@H](NC(=O)[C@@H](NC(=O)CCc1ccccc1)C(C)C)C(=O)N[C@H](C=O)C[C@@H]1CCCNC1=O", "tested on": "A549", "assay": "cell growth or viability, MTT", "setting": "24 h", "measurement": "CC50", "value": "> 100 µM"}
{"SMILES": "CC[C@H](C)[C@H]1C(=O)N2CCC[C@H]2C(=O)N[C@@H](CO)C(=O)N[C@H]([C@H](C)O)C(=O)N[C@H](Cc2ccc(O)cc2)C(=O)N[C@@H](CC(C)C)C(=O)NCC(=O)N[C@@H](C(C)C)C(=O)N[C@@H](C)C(=O)N[C@@H](Cc2ccccc2)C(=O)N2CCC[C@H]2C(=O)N1C", "test system": "aqueous buffer", "setting": "18 h, pH 7.4", "measurement": "solubility", "value": "589 µM"}
{"SMILES": "COc1ccc([C@@]23Oc4cc(OC)cc(OC)c4[C@@]24NC(C)=N[C@@]4(O)[C@H](C(=O)N(C)OC)[C@H]3c2ccccc2)cc1", "tested on": "A549-ACE2", "assay": "cell growth or viability, ATP luminescence", "setting": "48 h", "measurement": "CC50", "value": "0.2 µM"}
{"SMILES": "CC(C)C[C@H](CN)CC(=O)O", "test system": "mouse", "setting": "oral, 2000 mg/kg, single dose", "measurement": "LD50", "value": "> 2000 mg/kg"}
{"SMILES": "CCC[C@@](N)(CO)CCc1ccc(OCCCCCC(C)C)cc1", "test system": "dog, plasma", "setting": "oral, 5 mg/kg, fed", "measurement": "Cmax", "value": "350 nM"}
{"SMILES": "CC[C@H](C)[C@H]1C(=O)N[C@@H](Cc2ccc(O)cc2)C(=O)N2CCC[C@H]2C(=O)N[C@H]([C@H](C)O)C(=O)N[C@@H](CC(C)C)C(=O)N[C@@H](C(C)C)C(=O)N[C@@H](C)C(=O)N[C@@H](C)C(=O)N[C@@H](CO)C(=O)N[C@@H](Cc2ccccc2)C(=O)NCC(=O)N[C@H](C(=O)O)CSSC[C@H](N)C(=O)N1C", "test system": "aqueous buffer", "setting": "18 h, pH 7.4", "measurement": "solubility", "value": "851 µM"}
{"SMILES": "N=c1c2c(-c3ccccc3)c(-c3ccccc3)n(Cc3ccccc3)c2ncn1[C@H]1CC[C@H](O)CC1", "test system": "male cynomolgus monkey, plasma", "setting": "intravenous, 0.5 mg/kg, single dose", "measurement": "AUC(0-inf)", "value": "15000 ng·h/mL"}
{"SMILES": "CN[C@@H]1C[C@H]2O[C@@](C)([C@@H]1OC)n1c3ccccc3c3c4c(c5c6ccccc6n2c5c31)C(=O)NC4", "tested on": "NCI-H1975", "assay": "cell growth or viability, MTT", "setting": "25 µg", "measurement": "viability", "value": "36.5%"}
{"SMILES": "CC(C)C[C@H](NC(=O)[C@@H](NC(=O)/C=C/c1ccc(F)cc1)C(C)C)C(=O)N[C@H](C=O)C[C@@H]1CCCNC1=O", "tested on": "A549", "assay": "cell growth or viability, MTT", "setting": "24 h", "measurement": "CC50", "value": "> 100 µM"}
{"SMILES": "C#Cc1ccc2c(c1)C(c1ccccn1)=NCc1c(-c3cnco3)ncn1-2", "test system": "water", "setting": "24 h, 25 °C", "measurement": "solubility", "value": "468 µg/mL"}
{"SMILES": "[2H]c1c([2H])c([C@]2([2H])CCCN2C(=O)C(C)(C)Oc2ccc3cn[nH]c3c2)c([2H])c([2H])c1C([2H])([2H])[2H]", "tested on": "Testis-specific serine/threonine-protein kinase 1 (TSSK1B, Homo sapiens, UniProt Q9BXA7)", "assay": "binding, competition with immobilised ligand", "setting": "1 µM", "measurement": "remaining binding", "value": "66%"}
{"SMILES": "CC(C)C[C@H]1C(=O)N(C)[C@@H](CC(C)C)C(=O)N[C@H](Cc2ccc(O)cc2)C(=O)N2CCC[C@@H]2C(=O)N[C@H]([C@H](C)O)C(=O)NCC(=O)NCC(=O)N[C@@H](CO)C(=O)N[C@@H](C(C)C)C(=O)N[C@@H](C)C(=O)N[C@@H](C)C(=O)N[C@@H](Cc2ccccc2)C(=O)N1C", "test system": "aqueous buffer", "setting": "18 h, pH 7.4", "measurement": "solubility", "value": "589 µM"}
{"SMILES": "CC(C)C[C@H](NC(=O)[C@H](Cc1ccccc1)NC(=O)[C@H](Cc1ccccc1)NC(=O)Cc1ccc(-c2ccccc2)cc1)C(=O)N[C@@H](CCCCN)C(=O)N[C@@H](CCCNC(=N)N)C(=O)N[C@H](C(=O)N[C@@H](Cc1c[nH]c2ccccc12)C(=O)N[C@@H](CCCCN)C(=O)N[C@@H](CCCNC(=N)N)C(=O)O)C(C)C", "assay": "metabolic stability", "test system": "rat, liver microsomes", "setting": "45 min", "measurement": "compound remaining", "value": "16.9%"}
{"SMILES": "COc1ncccc1-c1cnn2ccc(N3CCN(C(=O)OC(C)C)CC3)nc12", "tested on": "Mitogen-activated protein kinase 6 (MAPK6, Homo sapiens, UniProt Q16659)", "assay": "binding, competition with immobilised ligand", "setting": "1 µM", "measurement": "remaining binding", "value": "100%"}
{"SMILES": "NCCc1ccc(Oc2ccc(O)cc2)c(I)c1", "tested on": "Solute carrier organic anion transporter family member 1C1 (Homo sapiens, UniProt Q9NYB5)", "assay": "transporter uptake, inhibitor, radiometric", "measurement": "IC50", "value": "4.8 µM"}
{"SMILES": "CC[C@H](C)[C@H](NC(=O)/C=C/c1ccccc1)C(=O)N[C@@H](CC(C)C)C(=O)N[C@H](C=O)C[C@@H]1CCCNC1=O", "tested on": "A549", "assay": "cell growth or viability, MTT", "setting": "24 h", "measurement": "CC50", "value": "> 100 µM"}
{"SMILES": "CC(C)C[C@H]1NC(=O)[C@@H](N)CSSC[C@@H](C(=O)O)NC(=O)[C@H](Cc2ccccc2)NC(=O)[C@H](C)NC(=O)[C@H]([C@@H](C)O)NC(=O)[C@H]2CCCN2C(=O)[C@@H]2CCCN2C(=O)[C@H](C(C)C)NC(=O)[C@H](CCC(=O)O)NC1=O", "test system": "aqueous buffer", "setting": "18 h, pH 7.4", "measurement": "thermodynamic solubility", "value": "712 µM"}
{"SMILES": "COc1ccc([C@@]23Oc4cc(OC)cc(OC)c4[C@@]24N=C(C2CC2)N[C@@]4(O)[C@H](C(=O)N(C)OC)[C@H]3c2ccccc2)cc1", "assay": "metabolic stability", "test system": "male CD-1 mouse, liver microsomes", "setting": "1 µM, pH 7.4", "measurement": "half-life", "value": "1.5 min"}
{"SMILES": "COc1ccc(/C=C/C(=O)N[C@H](C(=O)N[C@@H](CC(C)C)C(=O)N[C@H](C=O)C[C@@H]2CCCNC2=O)C(C)C)cc1", "tested on": "A549", "assay": "cell growth or viability, MTT", "setting": "24 h", "measurement": "CC50", "value": "> 100 µM"}
{"SMILES": "CC[C@@H](C)[C@H]1NC(=O)[C@@H](Cc2ccc(O)cc2)NC(=O)[C@@H](CCCNC(=N)N)NC(=O)[C@@H](Cc2ccc(O)cc2)NC(=O)[C@H]([C@@H](C)CC)NC(=O)[C@H]([C@@H](C)CC)NC(=O)[C@H](C)NC(=O)[C@H](C(C)C)NC(=O)[C@H](C(C)C)NC(=O)CNC(=O)[C@H](C(C)C)NC1=O", "test system": "aqueous buffer", "setting": "18 h, pH 7.4", "measurement": "solubility", "value": "240 µM"}
{"SMILES": "CC(C)C[C@H](NC(=O)[C@@H](NC(=O)C1CCCCC1)C(C)C)C(=O)N[C@H](C=O)C[C@@H]1CCCNC1=O", "tested on": "A549", "assay": "cell growth or viability, MTT", "setting": "24 h", "measurement": "CC50", "value": "> 100 µM"}
{"SMILES": "CC(C)C[C@@H]1NC(=O)[C@H]([C@@H](C)O)NC(=O)[C@H](C(C)C)NC(=O)[C@H](CC(C)C)NC(=O)[C@@H](C(C)C)N(C)C(=O)[C@H]2CCCN2C(=O)[C@@H](N)CSSC[C@@H](C(=O)O)NC(=O)[C@H]2CCCN2C(=O)[C@H](Cc2ccccc2)NC1=O", "test system": "aqueous buffer", "setting": "18 h, pH 7.4", "measurement": "thermodynamic solubility", "value": "695 µM"}
